Published values gathered from unrelated publications.
A part holds a random share of what one study measured. Positions count from the first letter of the parent shown.

Series 1 — target: ATF1, bZIP domain (human); technique: DHFR protein complementation; matrix: yeast; reference: wild-type JUN-FOS pair; direction: higher = stronger binding
Setting: single substitutions, most at no-binding floor
Starting sequence: JUN, bZIP domain (human); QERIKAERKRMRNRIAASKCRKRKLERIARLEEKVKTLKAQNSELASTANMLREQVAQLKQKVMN; partner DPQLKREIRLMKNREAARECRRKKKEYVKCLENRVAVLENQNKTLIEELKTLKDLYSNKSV
Variant | binding fitness [natural log]
E32D | -1.5
S47D | -1.52
N42E | -1.54
M51I | -1.46
L45A | -1.54
A57G | -1.5
M51R | -1.5
E54C | -1.48

Series 2 — target: CCNF, cyclin fold, Cln2 fusion (human); technique: yeast growth competition, sequencing; matrix: yeast; setting: strong parent motif; reference: not given; direction: higher = stronger binding; starting sequence: viral docking peptide; KGVKRKLFAEDSS
Variant | normalised enrichment score
KGVKRHLFAEDSS [K6H] | 3.57
KMVKRKLFAEDSS [G2M] | 8.09
KIVKRKLFAEDSS [G2I] | 7.09
KGLKRKLFAEDSS [V3L] | 5.58
KGVKRKLFAEWSS [D11W] | 8.39
KVVKRKLFAEDSS [G2V] | 7.42
KYVKRKLFAEDSS [G2Y] | 8.12
KGVKRKLFAELSS [D11L] | 7.98
KGVKRNLFAEDSS [K6N] | 6.3
KGVKEKLFAEDSS [R5E] | 0.0815
KGVKQKLFAEDSS [R5Q] | 1.05
KGVKRKLFAEHSS [D11H] | 7.89
KGVKRKLFAEYSS [D11Y] | 8.03
KGVKRKKFAEDSS [L7K] | 0.817
KGVKRKLDAEDSS [F8D] | 0.485
KGVKRKLFAEDWS [S12W] | 8.27
KGVKRKLFAEGSS [D11G] | 8.37
KGVKRKLFAEISS [D11I] | 8.27
KGVKRQLFAEDSS [K6Q] | 8.25
KGVKRKLFAEDYS [S12Y] | 7.73
KGVKRYLFAEDSS [K6Y] | 3.23
KGQKRKLFAEDSS [V3Q] | 1.51
KGVYRKLFAEDSS [K4Y] | 7.14
KGVKRKLFAYDSS [E10Y] | 7.29
KGVKRILFAEDSS [K6I] | 6.69

Series 3 — technique: RNA Bind-n-Seq; form: RNA; matrix: in vitro; tested at: 365 nM; reference: no-protein control; direction: higher = stronger binding
Target: RNA binding protein fox-1 homolog 2, RRM domain, GST-SBP tag (RBFOX2, Homo sapiens, UniProt O43251-10, residues 100-194)
Setting: natural RNA segment, single round, ends assumed
Shared flanks, not repeated: GGGAGUUCUACAGUCCGACGAUC … UGGAAUUCUCGGGUGCCAA
Residues (chain): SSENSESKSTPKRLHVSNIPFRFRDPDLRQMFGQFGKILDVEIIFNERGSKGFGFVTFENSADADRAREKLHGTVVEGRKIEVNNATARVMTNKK
Sequence | RBNS enrichment (R)
GGAGGAUCCUGACUCUCCUCUUUCCCAAACCAAGAGUUCAAGACUUUGGCGCCUUUUCUGAACCACUUCUGGGGCCCAACCCCUCCCUAGAACGGGCCCUCCCCCAACCC | 0.474
AUCAUUGCAUACAACAGCACAGCAAAUUGCGCCAAGUCAGUGUGUGAAUGGGAAUUAGCAAUGCACGCUUGCAGGCUCUUUUUCCAGGAACCAGGCUGUAACAUUGACCG | 1.1
UUGUACUGUAACUACCUCAUGGUUUGAAUGAUGAUUGUACUGCUGGUUGUGUUAACAGAGCACAUUUUGUUGGGUGAGUCCUAUGUGAUUUUUUUCAUGUUUGUUUUAUC | 3.29
CCCUUUCACUGCCCCAGUGGUGUAAGUGGAGGGCCAGGGACCCUGCAAUUGUACCUGCUCCUCAUCCUAUCCCCCACCCGCUUCCUUCCCCCAUUAAACCUCUAUCCGCC | 0.641
AAAAUUCAAAUGCACUUAUGUUCUCAUUCUAUGGCCAUUGUGUUGCCUCUGUUACUGUUUGUAUUGAAUAAAAACAUCUUCAUGUGGGCUGGGGUAGAAACUGGUGUCUG | 0.569
UCUUCCCCAGCACAGGGCAGACAGUGCUCACAAACAUUUGCCACUGGCCAUUGUCUCUGGAUCCCCUCAGAAAGCUGCCUCCCCUAGGCAGGUGCCUUUUGGACAGUUGU | 0.267
UAAUAUGAAGUAGAGAUUACUUUACACUACAUUGUACAUGGAGUAAUUCAACUGAAUAAAAGUGUCACGGGUAAAGCUUUUUAACGGUUAAUUUCUGUCAAACAGUAGGU | 0.3
AAUGGAUUGCAGGGGAAGGAAGGCCCAGGGCCCUGUGUGUCAUGCCCUCUUGGGUUCCUAAGUUCUAUGUUCCUUAGAGGUUCUAGCAUUAAACAGAUAAAGCCCUUCAU | 0.345

Series 4 — technique: Spec-seq; form: double-stranded DNA, one strand shown; matrix: in vitro; tested at: not given; setting: whole probe, mean of replicates; reference: not given; direction: lower = stronger binding; shared flanks, not repeated: GAGTCGTCTCGTCAGCAC … CCGTAGAGCACTCAGGTC
Target: Transcription factor SOX-2, HMG box (Sox2, Mus musculus, UniProt P48432, residues 41-119)
Sequence of UniProt P48432 (41-119, looked up): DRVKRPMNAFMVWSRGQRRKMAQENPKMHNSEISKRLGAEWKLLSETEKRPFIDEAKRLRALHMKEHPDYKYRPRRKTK
Sequence | relative binding energy
CATATTT | 0.0183 ln ratio
GTCTGTT | 0.128 ln ratio
CATCGTC | 0.629 ln ratio
CAGTGTT | -0.799 ln ratio
CATATGT | 0.0139 ln ratio
GCGGGTT | 1.66 ln ratio
GATAGTT | -0.121 ln ratio
GCTAGTT | 0.892 ln ratio

Mixed results — technique: cross-linking MS
Substance | partner | matrix | setting | together with | quantity | result
DRG2 (Homo sapiens, UniProt P55039) | RWDD1 (Homo sapiens, UniProt Q9H446) |  | hits only |  | interaction screen | cross-linked
MCM3 (Homo sapiens, UniProt P25205) | MCM7 (Homo sapiens, UniProt P33993) | cell fractions |  | DSSO | cross-linked residues | K435 to K236
ACAD9 (Homo sapiens, UniProt Q9H845) | NDUFAF1 (Homo sapiens, UniProt Q9Y375) | cell fractions |  | DSSO | cross-linked residues | K608 to K253
MTA1 (Homo sapiens, UniProt Q13330) | DYNC1H1 (Homo sapiens, UniProt Q14204) | cell fractions |  | DSSO | cross-linked residues | K678 to T3769

Repeated from above (series 2):
Variant | normalised enrichment score
KGVKRQLFAEDSS [K6Q] | 8.25
KGVKRKLFAEDYS [S12Y] | 7.73
KGVKRYLFAEDSS [K6Y] | 3.23
KGQKRKLFAEDSS [V3Q] | 1.51
KGVYRKLFAEDSS [K4Y] | 7.14
KGVKRKLFAYDSS [E10Y] | 7.29
